Results from different studies.
Compare with care: the assays were run in different laboratories. Values joined by “and” are separate records of one study, mostly repeats; a detail may differ. Numbers after ± are the reported error.

`Cc1ncnc2c1ccn2[C@@H]1C[C@H](Oc2cc(C(F)F)c(F)c3c2CNCC3)[C@@H](O)[C@H]1O` has a Cmin of 7.19 ng/mL and 13.6 ng/mL (human; oral, 1 mg twice daily).
`CCc1cc2c(cc1N1CCC(N3CCOCC3)CC1)C(C)(C)c1[nH]c3cc(C#N)ccc3c1C2=O` gave a Cmin of 1060 ng/mL (LC-MS; human, plasma; oral, 600 mg twice daily, cycle 1 day 15).
`Cc1cc(/C=C/C#N)cc(C)c1Nc1ccnc(Nc2ccc(C#N)cc2)n1` has a Cmin of 60 ng/mL (human, normal renal function, plasma; oral, dose not given, steady state, fixed-dose combination).
`CCCCOCCOc1ccc(-c2ccc3c(c2)/C=C(/C(=O)Nc2ccc([S@@+]([O-])Cc4cncn4CCC)cc2)CCCN3CC(C)C)cc1` has a Cmin of 64.2 ng/mL (human, matched controls (moderate impairment), plasma; oral, 150 mg, day 1).
The Cmin of `Cn1cc(-c2cn3nccc3c(-c3cnn([C@]4(CC#N)C[C@@H](C#N)C4)c3)n2)cn1` is reported as 10.4 ng/mL (healthy humans fed, plasma; 100 mg once daily, day 10, geometric mean).
`C[C@H](CCC(=O)O)[C@H]1CC[C@H]2[C@@H]3CC[C@@H]4C[C@H](OS(=O)(=O)O)CC[C@]4(C)[C@H]3CC[C@]12C` gave a Cmin of 276 ± 16 nM (human, plasma; baseline).
`CCOc1c([C@H](C)n2nc(C)c3c(N)ncnc32)cc(Cl)c(F)c1[C@@H]1CNC(=O)C1` gave a Cmin of 129 nM (human patients, plasma; oral, 15 mg once daily, cycle 1 day 15, monotherapy, geometric mean).
`C[C@H](CCC(=O)NCC(=O)O)[C@H]1CC[C@H]2[C@@H]3[C@H](O)C[C@@H]4C[C@H](O)CC[C@]4(C)[C@H]3CC[C@]12C` has a Cmin of 74.7 ± 11.1 nM (human, plasma; endogenous baseline diurnal).
For `CCN(CCO)CCCC(C)Nc1ccnc2cc(Cl)ccc12` (stereo not shown), the Cmin was 835 ng/mL and 1020 ng/mL and 682 ng/mL and 814 ng/mL and 1010 ng/mL and 1180 ng/mL and 895 ng/mL (human patient, whole blood; oral, 400 mg, steady state).
For `C[C@H](CCC(=O)O[C@@H]1O[C@H](C(=O)O)[C@@H](O)[C@H](O)[C@H]1O)[C@H]1CC[C@H]2[C@@H]3[C@H](O)C[C@@H]4C[C@H](O)CC[C@]4(C)[C@H]3CC[C@]12C`, the Cmin was 12.6 ± 1.7 nM (human, plasma; control).
For `Fc1ccc([C@@H]2CCNC[C@H]2COc2ccc3c(c2)OCO3)cc1`, the Cmin was 15 ng/mL (human, all CYP2D6 genotypes, plasma; oral, 20 mg, steady state).
For `O=C(O)CCCCCCCCCCCCCCC(=O)O`, the Cmin was 104 ± 14 nM (human, plasma; oral, dose not given, control).
`O=C(O)CCC(=O)O.[2H]C([2H])([2H])Oc1cc(C)c2[nH]ccc2c1CN1CC[C@@H](C2CC2)C[C@H]1c1ccc(C(=O)O)cc1` gave a Cmin of 3230 ng/mL (human, plasma; 300 mg once daily, day 10, multiple ascending dose, geometric mean).

For quick reference, copied from above:
`Cc1cc(/C=C/C#N)cc(C)c1Nc1ccnc(Nc2ccc(C#N)cc2)n1` has a Cmin of 60 ng/mL (human, normal renal function, plasma; oral, dose not given, steady state, fixed-dose combination).
